# Assay results collected from several papers.
# Every numbered part comes from another study and shows a few of its results, in no order.

# Sample 1 — cell line: HaCaT; tested at: 100 µM; time: 60 h
Compound,viability
O=C(CCCl)NCc1ccccc1,145%
CC(=O)CCCCn1c(=O)c2c(ncn2C)n(C)c1=O,88.4%
COc1ccccc1OCCNCC(O)COc1cccc2[nH]c3ccccc3c12 (stereo not shown),16%
Cc1c(O)c(=O)n(-c2ccccc2)n1C,156%
CC(C)Oc1ccc2c(=O)c(-c3ccccc3)coc2c1,125%

# Sample 2 — read-out: enzyme activity; mode: inhibitor; tested at: 10 µM
# Target: Calcium/calmodulin-dependent protein kinase type II subunit alpha (CAMK2A, Homo sapiens, UniProt Q9UQM7)
# Sequence of UniProt Q9UQM7 (whole entry, looked up): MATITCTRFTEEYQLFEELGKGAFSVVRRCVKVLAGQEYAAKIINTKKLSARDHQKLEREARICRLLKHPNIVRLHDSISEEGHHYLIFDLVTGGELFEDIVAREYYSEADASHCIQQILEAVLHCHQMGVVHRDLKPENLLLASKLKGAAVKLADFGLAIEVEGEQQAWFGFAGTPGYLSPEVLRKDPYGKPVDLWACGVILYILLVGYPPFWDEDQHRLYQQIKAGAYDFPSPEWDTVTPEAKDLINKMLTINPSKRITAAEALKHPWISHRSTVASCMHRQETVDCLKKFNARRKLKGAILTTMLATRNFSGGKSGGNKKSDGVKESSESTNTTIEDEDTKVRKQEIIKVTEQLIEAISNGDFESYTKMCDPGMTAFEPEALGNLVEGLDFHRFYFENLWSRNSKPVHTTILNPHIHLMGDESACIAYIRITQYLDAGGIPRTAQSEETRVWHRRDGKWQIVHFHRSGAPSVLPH
Structure (SMILES),inhibition [%]
COC1[C@@H](O)[C@H](O)C(O)[C@H](O)[C@H]1O (stereo partly shown),8
CCCCCCCc1cc(=O)c2ccccc2n1O,-2
CN(C)c1ccc2nc3ccc(=[N+](C)C)cc-3sc2c1,9
OC[C@H]1O[C@@H](Oc2c[nH]c3ccccc23)[C@H](O)[C@@H](O)[C@@H]1O,-24
O=c1c(O)c(-c2ccc(O)c(O)c2)oc2cc(O[C@@H]3O[C@H](CO)[C@@H](O)[C@H](O)[C@H]3O)c(O)c(O)c12,-37
CC(=O)Oc1cccc(O)c1,0

# Sample 3 — read-out: cell-free assay; tested at: 10 µM
# Target: 5-hydroxytryptamine receptor 5A (HTR5A, Homo sapiens, UniProt P47898)
# Sequence of UniProt P47898 (whole entry, looked up): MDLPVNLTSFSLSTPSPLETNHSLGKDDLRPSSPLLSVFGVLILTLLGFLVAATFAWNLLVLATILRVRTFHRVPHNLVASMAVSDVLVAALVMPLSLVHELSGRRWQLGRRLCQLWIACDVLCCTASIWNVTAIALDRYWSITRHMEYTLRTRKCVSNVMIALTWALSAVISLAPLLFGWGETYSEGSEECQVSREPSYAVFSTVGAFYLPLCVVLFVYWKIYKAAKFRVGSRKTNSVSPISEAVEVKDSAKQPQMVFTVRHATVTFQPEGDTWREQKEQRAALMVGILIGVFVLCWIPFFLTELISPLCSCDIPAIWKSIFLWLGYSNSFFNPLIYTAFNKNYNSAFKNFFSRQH
Structure (SMILES),inhibition [%]
CC(=O)N1CCC(c2ccc(C(=O)NC(=N)N)cc2C(F)(F)F)CC1,-4.89
CNC(=O)Nc1ccc2c(c1)[C@]1(CC2)OC(=O)N(CC(=O)N(Cc2ccc(F)cc2)[C@@H](C)C(F)(F)F)C1=O,2.78
Cc1ccccc1Oc1cc(-n2c(=O)cc(C(F)(F)F)[nH]c2=O)c2ccccc2c1Cl,5.61
CN1CCN(C(=O)C(C)(C)c2ccc(C(=O)Nc3cn4cc(-c5ccncc5)ccc4n3)cc2)CC1,4
CC(=O)Nc1c(F)cc(C(=O)N[C@H]2CC[C@H](O)CC2)cc1O[C@@H](C)c1ccccc1,-8.96

# Sample 4 — read-out: enzyme activity; mode: inhibitor; tested at: 0.5 µM; baseline: control
# Target: Dual specificity tyrosine-phosphorylation-regulated kinase 3 (DYRK3, Homo sapiens, UniProt O43781)
# Target sequence (O43781 1-588): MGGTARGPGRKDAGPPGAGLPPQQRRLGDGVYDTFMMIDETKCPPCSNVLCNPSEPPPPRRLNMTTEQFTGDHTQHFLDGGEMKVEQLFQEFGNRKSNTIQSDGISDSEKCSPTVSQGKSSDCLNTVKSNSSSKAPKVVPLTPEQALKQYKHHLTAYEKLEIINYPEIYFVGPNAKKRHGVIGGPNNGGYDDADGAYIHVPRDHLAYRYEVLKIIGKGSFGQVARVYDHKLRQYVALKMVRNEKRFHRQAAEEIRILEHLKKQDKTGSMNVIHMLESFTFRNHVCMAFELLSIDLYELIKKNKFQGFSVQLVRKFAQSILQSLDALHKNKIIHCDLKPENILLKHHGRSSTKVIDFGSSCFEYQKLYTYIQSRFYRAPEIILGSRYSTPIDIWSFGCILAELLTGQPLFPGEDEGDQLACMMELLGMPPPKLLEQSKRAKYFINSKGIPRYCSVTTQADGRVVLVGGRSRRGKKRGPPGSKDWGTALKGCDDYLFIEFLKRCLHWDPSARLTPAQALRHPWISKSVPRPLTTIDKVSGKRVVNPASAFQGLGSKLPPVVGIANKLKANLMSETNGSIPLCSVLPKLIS
SMILES,remaining activity
Cc1cccc(-c2[nH]c(C(C)(C)C)nc2-c2ccc3c(c2)OCO3)n1,102%
CN(C)c1ccc(C=C2C(=O)Nc3ccccc32)cc1,99.5%
Cc1ccc(NC(=O)c2ccc(CN3CCN(C)CC3)cc2)cc1Nc1nc(-c2cccnc2)cs1,108%
Cn1sc(=O)n(Cc2ccccc2)c1=O,108%
CCOC(=O)c1c(C)[nH]c(/C=C2\C(=O)Nc3ccccc32)c1C,102%
COc1cc2nccc(Oc3ccc(NC(=S)NC(=O)c4ccccc4C)cc3)c2cc1OC,90.8%
Cn1c2ccccc2c2c3c(c4c5ccccc5n(CCC#N)c4c21)CNC3=O,83.9%
COc1ccc(CNC(=O)Nc2ncc([N+](=O)[O-])s2)cc1,105%
CNC(=O)c1cc(Oc2ccc(NC(=O)Nc3ccc(Cl)c(C(F)(F)F)c3)cc2)ccn1,92.7%
N#CC(C#N)=C(N)/C(C#N)=C/c1ccc(O)cc1,97.7%
O=C1NC(=O)C(c2cn(CCCn3ccnc3)c3ccccc23)=C1Nc1ccccc1,103%
Oc1ccc(-c2nc(-c3ccncc3)c(-c3ccc(F)cc3)[nH]2)cc1,101%
O=c1c2ccccc2[nH]c(=S)n1CCN1CCC(=C(c2ccc(F)cc2)c2ccc(F)cc2)CC1,101%
OCC(O)CCON=C1C(c2c(O)[nH]c3ccccc23)=Nc2ccccc21 (stereo not shown),105%
COc1cc2ncnc(Nc3ccc(F)c(Cl)c3)c2cc1OCCCN1CCOCC1,85%

# Some of these lines once more (sample 3):
Structure (SMILES),inhibition [%]
CN1CCN(C(=O)C(C)(C)c2ccc(C(=O)Nc3cn4cc(-c5ccncc5)ccc4n3)cc2)CC1,4
CC(=O)Nc1c(F)cc(C(=O)N[C@H]2CC[C@H](O)CC2)cc1O[C@@H](C)c1ccccc1,-8.96
